# Assay results pooled from the literature.
# Every numbered part comes from another study and shows a few of its results, in no order.

# Set 1
# Target: Histone acetyltransferase KAT6A, winged helix 2, GST fusion (KAT6A, Homo sapiens, UniProt Q92794, residues 85-181)
# Technique: protein binding microarray
# Molecule type: double-stranded DNA, one strand shown
# Sample: in vitro
# Tested at: not given
# Notes: 8-mer, flanks averaged, mean of 2 arrays, mostly near background
# Baseline: not given
# Direction: higher = stronger binding
# Target sequence (chain): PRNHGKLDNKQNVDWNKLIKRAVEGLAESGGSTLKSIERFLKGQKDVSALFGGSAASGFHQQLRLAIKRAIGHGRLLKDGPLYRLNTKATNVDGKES
Oligonucleotide,E-score
CAGACCGG,0.0483
AATACCTA,-0.088
GTACATTA,-0.131
AAACTTTA,-0.108
AAACTTGA,0.0979

# Set 2
# Target: Protein C-ets-1 (ETS1, Homo sapiens, UniProt P14921, residues 1-441, Y397A, full length assumed)
# Technique: protein-binding microarray
# Molecule type: double-stranded DNA, one strand shown
# Sample: in vitro
# Tested at: not given
# Notes: k-mer, scored over probes, only values ≥0.25
# Direction: higher = stronger binding
# Target sequence (chain): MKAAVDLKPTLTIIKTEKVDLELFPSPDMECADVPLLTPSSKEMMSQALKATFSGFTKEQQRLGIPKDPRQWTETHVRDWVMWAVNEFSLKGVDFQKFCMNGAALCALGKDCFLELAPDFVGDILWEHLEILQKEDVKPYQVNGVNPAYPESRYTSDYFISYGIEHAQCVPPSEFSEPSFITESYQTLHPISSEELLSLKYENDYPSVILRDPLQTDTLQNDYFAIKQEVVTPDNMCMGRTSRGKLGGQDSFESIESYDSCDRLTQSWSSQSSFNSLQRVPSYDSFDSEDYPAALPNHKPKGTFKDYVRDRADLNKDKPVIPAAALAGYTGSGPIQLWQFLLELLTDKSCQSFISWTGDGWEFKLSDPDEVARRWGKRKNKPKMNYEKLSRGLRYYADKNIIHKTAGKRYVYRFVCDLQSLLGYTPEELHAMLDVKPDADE
Oligonucleotide,E-score
ACGTCGAC,0.283
AAGTTGCA,0.275
CCAGCAAA,0.316
ACTACAAT,0.269

# Set 3
# Target: Centromere-binding protein 1, full length, His-tagged (CBF1, Saccharomyces cerevisiae, UniProt P17106, residues 1-351)
# Sequence of UniProt P17106 (whole entry, looked up): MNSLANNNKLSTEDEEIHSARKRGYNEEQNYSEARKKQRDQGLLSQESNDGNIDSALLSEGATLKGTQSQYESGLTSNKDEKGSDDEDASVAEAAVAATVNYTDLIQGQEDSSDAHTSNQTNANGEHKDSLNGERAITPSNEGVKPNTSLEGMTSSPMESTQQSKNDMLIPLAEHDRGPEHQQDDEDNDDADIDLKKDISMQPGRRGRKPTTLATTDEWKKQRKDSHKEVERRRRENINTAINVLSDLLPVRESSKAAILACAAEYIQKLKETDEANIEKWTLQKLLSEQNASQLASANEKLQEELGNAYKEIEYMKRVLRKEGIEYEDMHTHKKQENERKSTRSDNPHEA
# Technique: competition protein-binding microarray
# Molecule type: double-stranded DNA, one strand shown
# Sample: in vitro
# Tested at: 2 µM
# Notes: whole 60-bp probe, lowest competitor level
# Together with: Pho4 competitor, 0.05 µM
# Direction: higher = stronger binding
Oligonucleotide,fluorescence intensity [a.u.]
CACTTAAGCCTTGGCAACGTGTTGAACCAAGTCGACGTCTTGATTCGCTTGACGCTGCTG,83.7
CGCGCGCGGCCGGGCCATGTGAAGATTTTAACGGGCGTCTTGATTCGCTTGACGCTGCTG,89.2
TGCAGTTTTCTTTCACACGTTCGAAAGCCCCTTTGAGTCTTGATTCGCTTGACGCTGCTG,104
CTTCTGTAAATTTGAAGCGTGGGTGGACGCGCCCCGGTCTTGATTCGCTTGACGCTGCTG,95.3

# Further values, each from its own experiment
Substance,target,assay,system,setting,scale,endpoint,value
"PhoQ, residues 284 288 289 292 302 303 SSTMSV","PhoP, residues 12 14 15 18 19 LFHKL (Escherichia coli, UniProt P23836)","Sort-seq, refers to: YFP reporter",E. coli,"PhoQ-PhoP variant library, together with: 10 µM Mg2+","baseline: high Mg2+ state, higher = stronger signaling",fold induction,10.1

# Excerpt of the above (set 2):
Oligonucleotide,E-score
CCAGCAAA,0.316
